Experimental data gathered from unrelated publications.
Compare with care: the assays were run in different laboratories. ± gives the spread as reported.

| SMILES | test | test system | setting | scale | measurement | result |
| --- | --- | --- | --- | --- | --- | --- |
| CC[C@H](C)[C@H](NC(=O)[C@H](CCCCN)NC(=O)CNC(=O)[C@H](CC(C)C)NC(=O)[C@H](Cc1ccccc1)NC(=O)[C@H](CCCCN)NC(=O)[C@H](CO)NC(=O)[C@H](Cc1ccccc1)NC(=O)[C@H](Cc1c[nH]c2ccccc12)NC(=O)[C@H](CCC(N)=O)NC(=O)[C@@H](NC(=O)[C@H](Cc1ccccc1)NC(=O)CCCCCNC(=O)CN1CCN(CC(=O)O)CCN(CC(=O)O)CCN(CC(=O)O)CC1)C(C)C)C(=O)N[C@@H](CCC(=O)O)C(=O)N1CCC[C@H]1C(=O)N[C@@H](CC(=O)O)C(=O)N[C@H](C(=O)N[C@@H](CO)C(=O)N[C@@H](CCC(N)=O)C(=O)N[C@H](C(=O)N[C@@H](CCC(N)=O)C(=O)N[C@@H](CC(=O)O)C(=O)N1CCC[C@H]1C(=O)N[C@@H](CC(N)=O)C(=O)N[C@@H](CC(=O)O)C(=O)N[C@@H](CCC(N)=O)C(=O)N[C@@H](Cc1ccc(O)cc1)C(=O)N[C@@H](CCC(=O)O)C(=O)N1CCC[C@H]1C(=O)N[C@@H](Cc1ccccc1)C(=O)O)C(C)C)C(C)C [copper-64 labelled] | – | C57BL/6 male mouse, tumour-naive, thymus | 4 h | – | tissue uptake | 2.48 ± 0.5 %ID/g |
| CCN(CC)CCOc1ccc(-c2nnn(Cc3ccc(OC)cc3)c2N)cc1 | metabolic stability | mouse, liver microsomes | – | – | half-life | 84 min |
| CN1Cc2cc(Cl)ccc2-n2c(nnc2C2CCN(c3cccc([18F])n3)CC2)C1 | – | C57BL/6 mouse male, stomach | intravenous, 3.7 MBq, 60 min | – | tissue uptake | 9.48 ± 1.63 %ID/g |
| O=C1NC2(CC2)COc2ncc(F)cc2[C@H]2COCCN2c2ccn3ncc1c3n2 | – | Sprague-Dawley rat, female, heart | oral, 5 mg/kg/day, 4 weeks, end of treatment | – | organ-to-body weight ratio | 0.364 ± 0.02% |
| CC(C)[C@@H]1NC(=O)CNC(=O)[C@H](CC(N)=O)NC(=O)[C@H](CCCNC(=N)N)NC(=O)[C@H](Cc2ccc(O)cc2)NC(=O)[C@H](C(C)C)NC(=O)[C@@H](NC(=O)[C@@H](NC(=O)[C@H](CC(N)=O)NC(=O)[C@H](Cc2c[nH]c3ccccc23)NC(=O)[C@H](C)NC(=O)[C@H](Cc2ccccc2)NC(=O)CNC(=O)[C@H](CCCCN)NC(=O)[C@H](Cc2ccccc2)NC(=O)[C@H](Cc2ccccc2)NC(=O)[C@H](CCCCN)NC(=O)OCC2c3ccccc3-c3ccccc32)C(C)C)CSSC[C@@H](C(=O)N[C@@H](Cc2c[nH]cn2)C(=O)N[C@@H](CCCNC(=N)N)C(=O)N[C@@H](CCCNC(=N)N)C(=O)N[C@@H](C)C(=O)N[C@@H](CC(N)=O)C(N)=O)NC(=O)[C@H](C(C)C)NC(=O)[C@H](CCCNC(=N)N)NC1=O | – | ICR mouse | ip, 10 mg/kg | direction not given | lachrymation score | 0 |
| CSCC[C@H](N)C(=O)N[C@@H](C)C(=O)N[C@@H](CCCNC(=N)N)C(=O)N[C@@H](CCCNC(=N)N)C(=O)N[C@@H](CC(=O)O)C(=O)N[C@@H](CCCCN)C(=O)N[C@H](C(=O)N[C@@H](CC(=O)O)C(=O)N[C@@H](Cc1ccccc1)C(=O)N[C@@H](C)C(=O)N[C@@H](CCCNC(=N)N)C(=O)N[C@@H](CCCNC(=N)N)C(=O)N[C@@H](CCCNC(=N)N)C(=O)N[C@@H](CCCNC(=N)N)C(=O)NCCCCCC(=O)NCCCCC(NC(=O)CCCCCNC(=O)[C@H](CCCNC(=N)N)NC(=O)[C@H](CCCNC(=N)N)NC(=O)[C@H](CCCNC(=N)N)NC(=O)[C@H](CCCNC(=N)N)NC(=O)[C@H](C)NC(=O)[C@H](Cc1ccccc1)NC(=O)[C@H](CC(=O)O)NC(=O)[C@@H](NC(=O)[C@H](CCCCN)NC(=O)[C@H](CC(=O)O)NC(=O)[C@H](CCCNC(=N)N)NC(=O)[C@H](CCCNC(=N)N)NC(=O)[C@H](C)NC(=O)[C@@H](N)CCSC)[C@@H](C)O)C(=O)NCCCCC(NC(=O)C(CCCCNC(=O)CCCCCNC(=O)[C@H](CCCNC(=N)N)NC(=O)[C@H](CCCNC(=N)N)NC(=O)[C@H](CCCNC(=N)N)NC(=O)[C@H](CCCNC(=N)N)NC(=O)[C@H](C)NC(=O)[C@H](Cc1ccccc1)NC(=O)[C@H](CC(=O)O)NC(=O)[C@@H](NC(=O)[C@H](CCCCN)NC(=O)[C@H](CC(=O)O)NC(=O)[C@H](CCCNC(=N)N)NC(=O)[C@H](CCCNC(=N)N)NC(=O)[C@H](C)NC(=O)[C@@H](N)CCSC)[C@@H](C)O)NC(=O)CCCCCNC(=O)[C@H](CCCNC(=N)N)NC(=O)[C@H](CCCNC(=N)N)NC(=O)[C@H](CCCNC(=N)N)NC(=O)[C@H](CCCNC(=N)N)NC(=O)[C@H](C)NC(=O)[C@H](Cc1ccccc1)NC(=O)[C@H](CC(=O)O)NC(=O)[C@@H](NC(=O)[C@H](CCCCN)NC(=O)[C@H](CC(=O)O)NC(=O)[C@H](CCCNC(=N)N)NC(=O)[C@H](CCCNC(=N)N)NC(=O)[C@H](C)NC(=O)[C@@H](N)CCSC)[C@@H](C)O)C(N)=O)[C@@H](C)O (some centres unmarked) | – | C57BL/6 mouse female, heart | dose not given, 6 h | baseline: total | mean tissue distribution | 0.88% |
| [2H]C([2H])([18F])[C@]([2H])(N)C(=O)O | PET | athymic nude mice, U-87 MG | dose not given, 15 min post-injection | baseline: tumour over muscle | tumour-to-muscle ratio | 2.3 ± 0.29 |
| CC(C)N1CCCCC1C(=O)NC(Cc1ccc(-c2ccccc2)cc1)B(O)O (centres unmarked) | – | SCID mouse, P. falciparum model, blood | oral, 25 mg/kg, 24 h | – | blood concentration | < 10 ng/mL |
| Cc1ccccc1-c1ccc(-c2nc(-c3ccc(CN(C)CCCC(=O)O)c([18F])c3)no2)cc1C(F)(F)F | – | rat, spleen | 5 min | – | tracer uptake | 1.1 %ID/g |
| COc1cnc2cccc(N3CCc4c(cc(Cn5ccnc5)cc4-c4cn(C)nc4C(F)(F)F)C3=O)c2c1 | – | CD-1 mice | intraperitoneal, 100 mg/kg once daily, day 4 | – | body weight | 30.1 ± 1 g |
| CC(C)NCCCn1c(Sc2cc3c(cc2I)OCO3)nc2c(N)ncnc21 | – | human patients, plasma | up to 400 mg/m^2 single dose, 5 min to 72 h, dose escalation, mean | – | AUC | ~100 µM·h |
| C#Cc1c(F)ccc2cc(O)cc(-c3ncc4c(N5CC6CCC(C5)N6C(=O)OC(OC(=O)CCC)C5CCCCC5)nc(OC[C@@]56CCCN5C[C@H](F)C6)nc4c3F)c12 (some centres unmarked) | chemical stability | simulated intestinal fluid | 1 µM, 30 min | – | compound remaining | 103% |
| C=C/C=C/C[C@@H](C)[C@@H](O)[C@H]1C(=O)N[C@@H](CC)C(=O)N(C)CC(=O)N(C)[C@@H](CC(C)C)C(=O)N[C@@H](C(C)C)C(=O)N(C)[C@@H](CC(C)C)C(=O)N[C@@H](C)C(=O)N[C@H](C)C(=O)N(C)[C@@H](CC(C)C)C(=O)N(C)[C@@H](CC(C)C)C(=O)N(C)[C@@H](C(C)C)C(=O)N1C | – | Wistar Kyoto rat, male, 24-hour urine | ip, 0.5 mg/kg/day, day 18 | – | urine volume | 7.2 ± 3.5 mL/day |
| CSCC[C@@H]1NC(=O)[C@H](C(C)C)NC(=O)[C@H](CCCNC(=N)N)NC(=O)[C@@H]2CCCN2C(=O)CNC(=O)[C@@H](NC(=O)CNC(=O)[C@H](CO)NC(=O)CNC(=O)[C@H](CO)NC(=S)Nc2ccc(C[C@H]3CN(CC(=O)O)CCN(CC(=O)O)CCN3CC(=O)O)cc2)CSSC[C@@H](C(N)=O)NC(=O)[C@@H]2CCCN2C(=O)CNC(=O)[C@H](CCC(=O)O)NC(=O)[C@H](CC(=O)O)NC(=O)[C@H](CC(=O)O)NC(=O)CNC(=O)[C@H](CC(C)C)NC(=O)[C@H](Cc2c[nH]cn2)NC(=O)[C@H](CC(C)C)NC(=O)CNC(=O)[C@H](Cc2c[nH]cn2)NC1=O [copper-64 labelled] | dynamic PET | CD rat, myocardial infarction model, left ventricular blood pool | intravenous, 18.5 MBq, 15 to 60 min | – | half-life | 24.3 ± 1.5 min |
| O=C(c1cc(Cc2n[nH]c(=O)c3ccccc23)ccc1F)N1CC(CNC2CC2)C1 | – | Wistar Han rat, male, blood | oral, 15 mg/kg daily, 4 weeks | – | haemoglobin | 16.6 ± 0.7 g/dL |
| O=C(CN1CCN(CC(=O)NCP(=O)([O-])[O-])CCN(CC(=O)NCP(=O)([O-])[O-])CCN(CC(=O)NCP(=O)([O-])[O-])CC1)NCP(=O)([O-])[O-].[Gd+3] | – | Sprague-Dawley rats, blood | intravenous, 35 µmol/kg, two-compartment model, added: GdDTPA 68 µmol/kg co-injected | – | AUC(0-inf) | 196 kg·min/L |
| N#[11C]c1ccc(-c2csc(NN=C3CCCC3)n2)cc1 | – | C57BL/6 mice, male, pancreas | intravenous, 3 MBq, 30 min | – | radioactivity uptake | 1.53 ± 0.26 %ID/g |

Repeated from above:
| SMILES | test | test system | setting | scale | measurement | result |
| --- | --- | --- | --- | --- | --- | --- |
| CSCC[C@H](N)C(=O)N[C@@H](C)C(=O)N[C@@H](CCCNC(=N)N)C(=O)N[C@@H](CCCNC(=N)N)C(=O)N[C@@H](CC(=O)O)C(=O)N[C@@H](CCCCN)C(=O)N[C@H](C(=O)N[C@@H](CC(=O)O)C(=O)N[C@@H](Cc1ccccc1)C(=O)N[C@@H](C)C(=O)N[C@@H](CCCNC(=N)N)C(=O)N[C@@H](CCCNC(=N)N)C(=O)N[C@@H](CCCNC(=N)N)C(=O)N[C@@H](CCCNC(=N)N)C(=O)NCCCCCC(=O)NCCCCC(NC(=O)CCCCCNC(=O)[C@H](CCCNC(=N)N)NC(=O)[C@H](CCCNC(=N)N)NC(=O)[C@H](CCCNC(=N)N)NC(=O)[C@H](CCCNC(=N)N)NC(=O)[C@H](C)NC(=O)[C@H](Cc1ccccc1)NC(=O)[C@H](CC(=O)O)NC(=O)[C@@H](NC(=O)[C@H](CCCCN)NC(=O)[C@H](CC(=O)O)NC(=O)[C@H](CCCNC(=N)N)NC(=O)[C@H](CCCNC(=N)N)NC(=O)[C@H](C)NC(=O)[C@@H](N)CCSC)[C@@H](C)O)C(=O)NCCCCC(NC(=O)C(CCCCNC(=O)CCCCCNC(=O)[C@H](CCCNC(=N)N)NC(=O)[C@H](CCCNC(=N)N)NC(=O)[C@H](CCCNC(=N)N)NC(=O)[C@H](CCCNC(=N)N)NC(=O)[C@H](C)NC(=O)[C@H](Cc1ccccc1)NC(=O)[C@H](CC(=O)O)NC(=O)[C@@H](NC(=O)[C@H](CCCCN)NC(=O)[C@H](CC(=O)O)NC(=O)[C@H](CCCNC(=N)N)NC(=O)[C@H](CCCNC(=N)N)NC(=O)[C@H](C)NC(=O)[C@@H](N)CCSC)[C@@H](C)O)NC(=O)CCCCCNC(=O)[C@H](CCCNC(=N)N)NC(=O)[C@H](CCCNC(=N)N)NC(=O)[C@H](CCCNC(=N)N)NC(=O)[C@H](CCCNC(=N)N)NC(=O)[C@H](C)NC(=O)[C@H](Cc1ccccc1)NC(=O)[C@H](CC(=O)O)NC(=O)[C@@H](NC(=O)[C@H](CCCCN)NC(=O)[C@H](CC(=O)O)NC(=O)[C@H](CCCNC(=N)N)NC(=O)[C@H](CCCNC(=N)N)NC(=O)[C@H](C)NC(=O)[C@@H](N)CCSC)[C@@H](C)O)C(N)=O)[C@@H](C)O (some centres unmarked) | – | C57BL/6 mouse female, heart | dose not given, 6 h | baseline: total | mean tissue distribution | 0.88% |
